Measured values of several laboratories.
Numbered parts are unrelated; each lists some results of a single study.
Chain of UniProt Q13237 (whole entry, looked up): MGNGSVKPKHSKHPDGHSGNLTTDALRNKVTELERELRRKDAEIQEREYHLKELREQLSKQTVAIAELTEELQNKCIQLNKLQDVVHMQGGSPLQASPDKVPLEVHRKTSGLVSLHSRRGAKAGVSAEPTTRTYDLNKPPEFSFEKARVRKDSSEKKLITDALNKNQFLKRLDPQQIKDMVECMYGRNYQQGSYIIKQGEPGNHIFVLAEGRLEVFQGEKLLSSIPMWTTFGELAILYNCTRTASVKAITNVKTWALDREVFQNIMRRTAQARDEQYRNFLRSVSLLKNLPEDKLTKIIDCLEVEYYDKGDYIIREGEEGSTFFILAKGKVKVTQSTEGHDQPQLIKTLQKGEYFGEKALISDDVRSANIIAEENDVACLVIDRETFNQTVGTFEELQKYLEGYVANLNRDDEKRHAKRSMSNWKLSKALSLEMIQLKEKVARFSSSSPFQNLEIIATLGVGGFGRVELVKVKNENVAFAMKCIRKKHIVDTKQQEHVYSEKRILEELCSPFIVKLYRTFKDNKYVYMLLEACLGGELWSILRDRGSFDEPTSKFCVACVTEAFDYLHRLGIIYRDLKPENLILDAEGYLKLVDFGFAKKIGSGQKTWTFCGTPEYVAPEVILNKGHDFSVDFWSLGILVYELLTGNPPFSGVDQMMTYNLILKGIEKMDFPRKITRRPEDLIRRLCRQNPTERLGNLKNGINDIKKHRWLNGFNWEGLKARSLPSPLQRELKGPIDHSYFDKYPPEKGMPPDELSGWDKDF
Chain of UniProt P51956 (whole entry, looked up): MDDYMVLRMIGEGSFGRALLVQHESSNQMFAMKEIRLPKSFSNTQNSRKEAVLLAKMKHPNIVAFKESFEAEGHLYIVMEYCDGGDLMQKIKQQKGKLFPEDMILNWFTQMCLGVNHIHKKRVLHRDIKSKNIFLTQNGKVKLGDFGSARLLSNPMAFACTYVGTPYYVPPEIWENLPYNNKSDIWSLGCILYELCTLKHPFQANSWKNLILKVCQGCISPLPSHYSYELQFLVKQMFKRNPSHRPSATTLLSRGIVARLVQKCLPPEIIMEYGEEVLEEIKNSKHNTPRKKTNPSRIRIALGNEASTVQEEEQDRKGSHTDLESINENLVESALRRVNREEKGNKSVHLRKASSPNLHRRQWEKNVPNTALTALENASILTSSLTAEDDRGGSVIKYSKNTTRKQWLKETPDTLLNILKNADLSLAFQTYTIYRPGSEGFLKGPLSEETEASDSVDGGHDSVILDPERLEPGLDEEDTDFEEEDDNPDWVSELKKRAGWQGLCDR
Chain of UniProt Q8N568 (whole entry, looked up): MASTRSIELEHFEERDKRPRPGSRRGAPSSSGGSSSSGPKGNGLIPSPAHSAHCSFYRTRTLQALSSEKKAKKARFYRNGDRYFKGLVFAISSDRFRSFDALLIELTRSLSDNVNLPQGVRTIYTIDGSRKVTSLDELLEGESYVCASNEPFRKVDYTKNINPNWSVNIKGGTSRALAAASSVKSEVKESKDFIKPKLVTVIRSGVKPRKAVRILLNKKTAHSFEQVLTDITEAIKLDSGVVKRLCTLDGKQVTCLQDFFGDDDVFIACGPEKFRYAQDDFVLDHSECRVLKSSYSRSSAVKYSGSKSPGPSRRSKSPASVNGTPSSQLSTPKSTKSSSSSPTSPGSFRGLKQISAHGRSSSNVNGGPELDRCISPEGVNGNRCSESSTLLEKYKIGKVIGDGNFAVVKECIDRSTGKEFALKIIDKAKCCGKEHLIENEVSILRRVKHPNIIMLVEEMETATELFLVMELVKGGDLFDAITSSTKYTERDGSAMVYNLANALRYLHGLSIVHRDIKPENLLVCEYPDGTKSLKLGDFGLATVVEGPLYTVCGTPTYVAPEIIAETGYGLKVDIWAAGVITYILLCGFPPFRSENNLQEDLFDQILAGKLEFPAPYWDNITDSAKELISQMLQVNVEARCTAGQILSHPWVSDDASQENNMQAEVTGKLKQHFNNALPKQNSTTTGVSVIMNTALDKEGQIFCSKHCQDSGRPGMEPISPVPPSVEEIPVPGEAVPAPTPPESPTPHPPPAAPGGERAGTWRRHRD
Chain of UniProt O75914 (whole entry, looked up): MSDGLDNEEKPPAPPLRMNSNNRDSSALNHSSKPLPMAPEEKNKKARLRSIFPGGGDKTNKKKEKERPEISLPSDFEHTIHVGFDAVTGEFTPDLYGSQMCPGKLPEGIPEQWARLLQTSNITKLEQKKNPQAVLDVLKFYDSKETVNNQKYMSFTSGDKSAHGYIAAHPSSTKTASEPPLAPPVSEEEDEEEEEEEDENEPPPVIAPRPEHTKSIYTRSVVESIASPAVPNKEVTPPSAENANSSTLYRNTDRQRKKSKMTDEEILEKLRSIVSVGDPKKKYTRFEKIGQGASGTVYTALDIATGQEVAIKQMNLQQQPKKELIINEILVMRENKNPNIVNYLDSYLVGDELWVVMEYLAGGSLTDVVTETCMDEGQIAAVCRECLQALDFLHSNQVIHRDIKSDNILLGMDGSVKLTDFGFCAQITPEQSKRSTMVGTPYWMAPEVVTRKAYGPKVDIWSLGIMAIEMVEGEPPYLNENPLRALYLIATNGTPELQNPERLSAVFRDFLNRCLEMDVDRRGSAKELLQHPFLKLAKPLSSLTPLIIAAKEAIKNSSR
Chain of UniProt Q8TDX7 (whole entry, looked up): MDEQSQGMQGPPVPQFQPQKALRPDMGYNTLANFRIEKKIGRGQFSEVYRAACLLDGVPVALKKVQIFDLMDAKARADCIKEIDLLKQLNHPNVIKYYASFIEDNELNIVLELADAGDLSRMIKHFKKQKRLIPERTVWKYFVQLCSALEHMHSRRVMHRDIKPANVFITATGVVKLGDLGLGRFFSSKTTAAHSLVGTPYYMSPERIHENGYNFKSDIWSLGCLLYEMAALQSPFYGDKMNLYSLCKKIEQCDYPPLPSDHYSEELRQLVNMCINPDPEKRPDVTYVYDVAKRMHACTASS
Chain of UniProt P07333 (whole entry, looked up): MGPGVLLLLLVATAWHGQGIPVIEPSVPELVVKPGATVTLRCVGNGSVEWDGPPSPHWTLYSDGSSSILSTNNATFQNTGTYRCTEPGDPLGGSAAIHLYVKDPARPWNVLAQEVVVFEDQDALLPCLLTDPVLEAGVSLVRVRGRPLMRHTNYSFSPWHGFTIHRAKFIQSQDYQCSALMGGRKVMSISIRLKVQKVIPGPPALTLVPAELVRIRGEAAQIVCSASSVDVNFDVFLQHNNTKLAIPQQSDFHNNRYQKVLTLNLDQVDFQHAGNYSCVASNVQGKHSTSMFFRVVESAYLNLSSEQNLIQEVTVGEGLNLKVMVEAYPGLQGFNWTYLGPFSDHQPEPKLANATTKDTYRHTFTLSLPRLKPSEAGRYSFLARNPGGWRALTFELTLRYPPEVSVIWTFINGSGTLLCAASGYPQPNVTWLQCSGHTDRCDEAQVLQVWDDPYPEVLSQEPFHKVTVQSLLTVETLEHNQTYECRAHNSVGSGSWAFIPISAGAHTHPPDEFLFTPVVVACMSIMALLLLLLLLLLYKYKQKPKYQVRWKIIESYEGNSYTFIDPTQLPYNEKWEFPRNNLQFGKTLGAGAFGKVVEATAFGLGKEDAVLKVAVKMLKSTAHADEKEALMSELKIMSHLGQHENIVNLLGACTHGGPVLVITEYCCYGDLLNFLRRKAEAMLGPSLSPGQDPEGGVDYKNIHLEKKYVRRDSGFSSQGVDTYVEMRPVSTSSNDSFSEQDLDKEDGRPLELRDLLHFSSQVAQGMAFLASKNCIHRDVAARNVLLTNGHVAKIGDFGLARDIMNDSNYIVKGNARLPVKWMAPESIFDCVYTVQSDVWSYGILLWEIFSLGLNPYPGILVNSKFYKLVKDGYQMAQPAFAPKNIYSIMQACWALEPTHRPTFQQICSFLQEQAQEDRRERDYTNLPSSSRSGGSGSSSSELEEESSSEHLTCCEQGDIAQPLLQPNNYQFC
Chain of UniProt P32298 (whole entry, looked up): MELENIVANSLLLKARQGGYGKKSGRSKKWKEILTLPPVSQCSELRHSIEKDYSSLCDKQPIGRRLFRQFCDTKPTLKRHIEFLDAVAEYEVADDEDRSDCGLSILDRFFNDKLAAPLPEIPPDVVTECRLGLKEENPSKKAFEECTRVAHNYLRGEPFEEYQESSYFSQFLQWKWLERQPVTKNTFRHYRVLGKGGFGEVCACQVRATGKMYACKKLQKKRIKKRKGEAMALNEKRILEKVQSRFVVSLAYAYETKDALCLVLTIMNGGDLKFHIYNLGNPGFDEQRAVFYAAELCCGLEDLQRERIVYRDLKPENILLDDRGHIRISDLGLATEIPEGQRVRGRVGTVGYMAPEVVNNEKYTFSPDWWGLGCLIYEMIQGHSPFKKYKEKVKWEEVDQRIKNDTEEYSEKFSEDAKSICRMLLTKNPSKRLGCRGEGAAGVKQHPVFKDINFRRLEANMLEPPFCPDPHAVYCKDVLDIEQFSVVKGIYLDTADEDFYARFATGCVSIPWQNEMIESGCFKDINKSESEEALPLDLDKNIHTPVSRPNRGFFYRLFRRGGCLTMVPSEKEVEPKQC

Block 1
Target: Calcium/calmodulin-dependent protein kinase type II subunit alpha (CAMK2A, Homo sapiens, UniProt Q9UQM7)
Chain of UniProt Q9UQM7 (whole entry, looked up): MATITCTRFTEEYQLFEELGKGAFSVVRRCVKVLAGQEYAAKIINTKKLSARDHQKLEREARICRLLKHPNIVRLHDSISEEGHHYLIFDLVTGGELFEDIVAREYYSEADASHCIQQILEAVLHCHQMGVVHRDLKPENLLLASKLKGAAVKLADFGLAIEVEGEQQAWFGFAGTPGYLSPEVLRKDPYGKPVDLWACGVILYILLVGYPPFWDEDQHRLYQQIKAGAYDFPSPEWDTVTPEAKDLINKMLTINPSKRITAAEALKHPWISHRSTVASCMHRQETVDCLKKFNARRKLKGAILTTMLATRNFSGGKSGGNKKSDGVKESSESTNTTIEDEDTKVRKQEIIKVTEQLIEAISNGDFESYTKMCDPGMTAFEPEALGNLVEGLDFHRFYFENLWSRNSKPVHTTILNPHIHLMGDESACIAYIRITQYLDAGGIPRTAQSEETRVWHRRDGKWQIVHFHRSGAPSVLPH
Read-out: enzyme activity
Action: inhibitor
Concentration: 10 µM
Endpoint: inhibition
NC(=O)c1cnc2[nH]ccc2c1N[C@@H]1[C@@H]2CC3C[C@H]1C[C@@](O)(C3)C2: 1%
COc1cc2/c(=N/c3ccc(Br)cc3F)nc[nH]c2cc1OCC1CCN(C)CC1: -11%
CC1=CC(=O)CC(C)(C)C1(O)/C=C/C(C)=C\C(=O)O (racemic): -12%
O=C(O)C1CCCCN1O (stereo not drawn): 8%
Nc1nc2c(ncn2[C@@H]2O[C@@H]3COP(=O)(O)O[C@H]3[C@H]2O)c(=O)[nH]1: -1%
Nc1ccc(C(=O)O)cc1: -1%

Block 2
Structure (SMILES): N#Cc1c(NC(=O)c2cccc3ccccc23)sc2c1CCCC2
Read-out: enzyme activity
Action: inhibitor
Concentration: 0.5 µM
Relative to: control
Endpoint: remaining activity
Myosin-IIIb (MYO3B, Homo sapiens, UniProt Q8WXR4): 107%
MET (Homo sapiens, UniProt P08581): 109%
NEK3 (Homo sapiens, UniProt P51956): 93.2%
GRK4 (Homo sapiens, UniProt P32298): 110%
CLK3 (Homo sapiens, UniProt P49761): 99.3%
MINK1 (Homo sapiens, UniProt Q8N4C8): 95.2%
TLK2 (Homo sapiens, UniProt Q86UE8): 98.9%
MAP2K1 (Homo sapiens, UniProt Q02750): 98.4%
KDR (Homo sapiens, UniProt P35968): 100%
RPS6KA4 (Homo sapiens, UniProt O75676): 111%
PAK3 (Homo sapiens, UniProt O75914): 105%
PRKG2 (Homo sapiens, UniProt Q13237): 111%
DCLK2 (Homo sapiens, UniProt Q8N568): 96.5%
ROCK1 (Homo sapiens, UniProt Q13464): 96.3%

Block 3
Compound: O=C(NC[C@@H]1[C@H]2CN(C(=O)OCc3cc(C(F)(F)F)cc(C(F)(F)F)c3)C[C@@H]12)c1ccc2[nH]nnc2c1
Read-out: cell-free assay
Method: competition with immobilised ligand
Concentration: 1 µM
Endpoint: remaining binding
Macrophage colony-stimulating factor 1 receptor, autoinhibited (CSF1R, Homo sapiens, UniProt P07333): 95%
DAPK3 (Homo sapiens, UniProt O43293): 94%
PRKG2 (Homo sapiens, UniProt Q13237): 82%
CAMK2D (Homo sapiens, UniProt Q13557): 100%
NEK7 (Homo sapiens, UniProt Q8TDX7): 83%
NEK4 (Homo sapiens, UniProt P51957): 84%
CAMK4 (Homo sapiens, UniProt Q16566): 100%

Block 4
Target: His6 tag
Method: AlphaScreen counter screen
Concentration: concentration not given
Endpoint: inhibition
c1coc(-c2[nH]c3ncccc3c2CN2CCOCC2)c1: 3.4%
CNC(=O)c1cc(Oc2ccc(NC(=O)Nc3ccc(Cl)c(C(F)(F)F)c3)cc2)ccn1: 8.9%
CCn1c(=O)c(-c2cc[nH]n2)cc2c(C)nc(N)nc21: 30.1%
NC(=O)COc1ccc2cc(-c3nc4ccccc4s3)c(=O)oc2c1: 9.15%
CCOC(=O)c1cnc2cc(OCCOC(C)C)c(OCCOC(C)C)cc2c1O: 9.95%
CC[C@H](CO)Nc1nc(NCc2ccccc2)c2ncn(C(C)C)c2n1: 18.9%

Excerpt of the above (block 3):
DAPK3 (Homo sapiens, UniProt O43293): 94%
CAMK4 (Homo sapiens, UniProt Q16566): 100%
NEK4 (Homo sapiens, UniProt P51957): 84%
Macrophage colony-stimulating factor 1 receptor, autoinhibited (CSF1R, Homo sapiens, UniProt P07333): 95%
